Results pooled from the literature.
Values joined by “and” are separate records of one study, mostly repeats; a detail may differ. ± marks the error that the study gave.
Sequence of UniProt P45983 (whole entry, looked up): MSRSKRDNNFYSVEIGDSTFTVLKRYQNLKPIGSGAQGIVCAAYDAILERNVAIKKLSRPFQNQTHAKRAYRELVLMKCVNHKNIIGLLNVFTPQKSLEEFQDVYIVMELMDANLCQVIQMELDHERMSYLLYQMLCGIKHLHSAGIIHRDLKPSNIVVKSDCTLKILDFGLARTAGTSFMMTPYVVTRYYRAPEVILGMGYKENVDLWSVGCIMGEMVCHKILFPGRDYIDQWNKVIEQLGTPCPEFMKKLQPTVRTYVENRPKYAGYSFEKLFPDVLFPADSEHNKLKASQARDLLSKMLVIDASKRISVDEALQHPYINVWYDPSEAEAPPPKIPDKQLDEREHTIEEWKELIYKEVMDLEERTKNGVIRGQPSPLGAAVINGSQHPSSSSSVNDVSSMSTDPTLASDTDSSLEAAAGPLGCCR
Sequence of UniProt Q00535 (whole entry, looked up): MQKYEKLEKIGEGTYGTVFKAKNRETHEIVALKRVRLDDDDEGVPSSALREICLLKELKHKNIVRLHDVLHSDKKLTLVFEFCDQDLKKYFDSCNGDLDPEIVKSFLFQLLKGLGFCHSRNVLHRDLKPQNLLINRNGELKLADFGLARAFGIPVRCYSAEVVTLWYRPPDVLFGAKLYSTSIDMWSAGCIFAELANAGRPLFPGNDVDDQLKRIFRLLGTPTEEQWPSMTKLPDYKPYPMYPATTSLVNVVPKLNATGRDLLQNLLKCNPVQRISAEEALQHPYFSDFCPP

The IC50 of `Cc1nn(-c2cccc(N)c2)c(=O)c2cnc(Nc3ccc(N4CCNCC4)cc3)nc12` is reported as 2.19 µM (Cyclin-dependent kinase 5, with p25 (CDK5, Homo sapiens, UniProt Q00535); enzyme activity, inhibitor).
`CN1CCN(C(=O)c2ccc(-c3cc4c(N5CCC[C@H](C(=O)NCc6ccc(OC(F)(F)F)cc6)C5)ncnc4[nH]3)cc2)CC1` gave an inhibition of 9.45% (NCI-H3122; cell growth or viability, MTT; 0.0016 µg/mL, 72 h).
The toxicity of `CCc1ccc(OCc2nnc(SC3CCCC3=O)n2C(C)c2ccccc2)cc1` (stereo not shown) is reported as 8.16% (HEK293T STF; viability, PrestoBlue; 10 µM, 24 h).
For `CSCC[C@H](NC(=O)[C@H](CCC(N)=O)NC(=O)[C@H](CCCCN)NC(=O)[C@H](CCCNC(=N)N)NC(=O)[C@H](Cc1ccc(O)cc1)NC(=O)[C@H](CCCNC(=N)N)NC(=O)[C@H](CO)NC(=O)[C@H](Cc1ccc(O)cc1)NC(=O)[C@H](CO)NC(=O)[C@H](CC(=O)O)NC(=O)[C@@H](NC(=O)[C@@H](N)Cc1ccccc1)[C@@H](C)O)C(=O)N[C@@H](C)C(=O)N[C@H](C(=O)N[C@@H](CCCCN)C(=O)N[C@@H](CCCCn1cc(C[C@H](NC(=O)CNC(=O)[C@H](CO)NC(=O)[C@H](CCCNC(=N)N)NC(=O)[C@H](CO)NC(=O)[C@H](CC(C)C)NC(=O)[C@H](CC(C)C)NC(=O)CNC(=O)[C@H](C)NC(=O)[C@H](CC(C)C)NC(=O)[C@H](CCCNC(=N)N)NC(=O)[C@H](Cc2c[nH]cn2)NC(=O)[C@@H](NC(=O)[C@@H](N)C(C)C)[C@@H](C)O)C(=O)N[C@H](C(=O)N[C@H](C(=O)N[C@@H](CCCCN)C(=O)N[C@@H](CC(N)=O)C(=O)N[C@@H](CC(N)=O)C(=O)N[C@@H](Cc2ccccc2)C(=O)N[C@H](C(=O)N2CCC[C@H]2C(=O)N[C@H](C(=O)N[C@@H](CC(N)=O)C(=O)N[C@H](C(=O)NCC(=O)N[C@@H](CO)C(=O)N[C@@H](CCCCN)C(=O)N[C@@H](C)C(=O)N[C@@H](Cc2ccccc2)C(N)=O)C(C)C)[C@@H](C)O)C(C)C)C(C)C)C(C)C)nn1)C(=O)N[C@@H](Cc1ccc(O)cc1)C(=O)N[C@@H](CC(C)C)C(=O)N[C@@H](C)C(=O)N[C@@H](C)C(=O)N[C@H](C(=O)N[C@@H](CC(C)C)C(=O)NCC(=O)N[C@@H](CCCCN)C(=O)N[C@@H](CCCNC(=N)N)C(=O)N[C@@H](Cc1ccc(O)cc1)C(=O)N[C@@H](CCCCN)C(=O)N[C@@H](CCC(N)=O)C(=O)N[C@@H](CCCNC(=N)N)C(=O)N[C@H](C(=O)N[C@@H](CCCCN)C(=O)N[C@@H](CC(N)=O)C(=O)N[C@@H](CCCCN)C(N)=O)C(C)C)C(C)C)C(C)C`, the pA2 was 5.31 (transfected COS-7 cells; cAMP accumulation, antagonist; with: PACAP-27).
`C#CCOC(=O)[C@@]1(C)C=C(C(=O)Nc2cccc(C(=O)Nc3ccc(C)c(Nc4nccc(-c5cccnc5)n4)c3)c2)C(=O)CC1` has a phospho-c-Jun level of 0.382 (SH-SY5Y MKK7 active; western blot, refers to: phospho-c-Jun Ser73; 1 µM, unit not given; reference: doxycycline without inhibitor).
With `CCCC[C@H](NC(=O)COCCOCCNC(=O)CN1CCN(CC(=O)O)CCN(CC(=O)O)CC1)C(=O)N[C@H]1CC(=O)NCCCC[C@@H](C(N)=O)NC(=O)[C@H](Cc2c[nH]c3ccccc23)NC(=O)[C@H](CCCNC(=N)N)NC(=O)[C@@H](Cc2ccccc2)NC(=O)[C@H](Cc2c[nH]cn2)NC1=O` [technetium-99m labelled] the tissue uptake was 0.09 ± 0.02 %ID/g (C57 mouse, skin; intravenous, 0.037 MBq, 24 h).
`COC(=O)[C@]1(Cc2ccccc2)C=C(C(=O)OC(C)(C)C)C(=O)CC1` has a fraction bound of 0.76 (Mitogen-activated protein kinase 8 (MAPK8, Homo sapiens, UniProt P45983); D-peptide binding, inhibitor, FP peptide displacement; 3.906 µM; lower is stronger displacement).
With `CC(C)[C@H](NC(=O)[C@H](CCCNC(=N)N)NC(=O)C[C@@H](N)CCCN)C(=O)N[C@@H](Cc1c[nH]cn1)C(=O)N[C@@H](Cc1ccccc1)C(N)=O` the responder cells was 0% (HeLa cells; calcium release, Fluo-4 imaging; 100 µM).
The revertants of `CCN(CC)CC#CCNc1ccnc2cc(Cl)ccc12` is reported as 11 revertants/well and 8 revertants/well (Salmonella typhimurium; mini-Ames test; TA98; 62.5 µg/well, with rat liver S9).
For `O=C(N[C@@H](Cc1ccc(OCCCCC2CCNCC2)cc1)C(=O)O)c1nc2ccccc2o1.O=C(O)C(F)(F)F`, the ADP-induced aggregation was 0.994 and 1.2 and 0.943 and 0.936 and 0.892 (platelets; impedance aggregometry; human, diluted whole blood; 25 nM, with: ADP; reference: untreated).
With `O=C(C[Se]C(=O)c1ccc2ccccc2c1)Nc1cccc(C(F)(F)F)c1` the TGI was 4.24 µM (NCI60 breast subpanel mean; cell growth).
`Nc1ncc(-c2cc(-c3cnn(CC(F)(F)F)c3)ncc2F)nc1C(=O)NC1CNCC(F)C1` (stereo not shown) gave a remaining binding of 94% (GAK; KINOMEscan; 1 µM; reference: DMSO control).
The IC50 of `CNS(=O)(=O)Nc1nccc(Cc2c(C)c3ccc(Oc4ncccc4F)cc3oc2=O)c1F` is reported as over 1 µM (CA46; cell viability; 7 days).
For `CC(C)OCCOCc1ccc(OCC(O)CN(N=O)C(C)C)cc1` (stereo not shown), “revertant fold increase” read 0.8 fold (Escherichia coli; Ames test; WP2 uvrA; 1580 µg/plate, 30 % rat S9; reference: solvent control).
Under “log2 fold change”, `C[C@@H]1Cc2c([nH]c3ccccc23)[C@@H](c2c(F)cc(/C=C/C(=O)O)cc2F)N1C12CC(C1)C2` is recorded as -1.31 (MCF7; RNA-seq, refers to: AMZ1 mRNA; 1 µM, 24 h, E2-induced gene; reference: DMSO vehicle).
Under “log2 fold change”, `Cn1ncc2cc(-c3cncc(Cl)c3N3CCC4(CCNC4=O)CC3)ccc21` is recorded as 2.69 (LS174T; gene expression, microarray, refers to: HOXB5 mRNA; concentration not given, 24 h; reference: untreated cells).
`CCN(C(=O)c1cc(F)ccc1Oc1nncnc1N1CCC2(C1)CN([C@H](CCCN(C)CCOC)C(C)C)C2)C(C)C` gave a GI50 of over 10 µM (SK-HEP1; cell growth or viability; 7 days).
`Cc1c(Cl)cccc1Nc1ccccc1C(=O)[Se]CC(=O)Nc1cccc(C(F)(F)F)c1`: “mean growth percent” -79.5% (NCI60 prostate subpanel (PC-3, DU-145); cell growth; 10 µM, 48 h, one-dose).
With `O=C1C(Br)=C(Br)C(=O)c2ccccc21` the selectivity index was 1.96 (HuCC-A1; MTT; reference: IC50 MRC-5 over IC50 HuCC-A1).
With `C=CC(=O)N1[C@H](c2ccc3c(c2)OCO3)c2[nH]c3ccccc3c2C[C@@H]1C(=O)NC1CC1` the neuron degeneration was 79.7% and 77.2% (rat DRG neurons; 0.01372 µM, 48 h, with: vincristine 40 nM).
`N#Cc1cccc(/C=C/C(=O)c2ccc(O)cc2)c1` has a fold change of 27.6 (U-87 MG; refers to: ZFAND2A; concentration not given; reference: untreated).
The protein level of `CC1(C)CC[C@@]2(CO)C(=C3C=C[C@@H]4[C@@]5(C)CC[C@H](O)[C@@](C)(CO)[C@@H]5CC[C@@]4(C)[C@]3(C)C[C@@H]2O)C1` is reported as 1.97 and 1.33 and 1.62 (HepG2, negative control siRNA; Western blot, refers to: SIRT1; concentration not given, high dose, unit not given, with: ethanol; reference: β-actin).
`COC1CN([C@H]2CC[C@H]([C@@]3(C)Oc4c(Cl)cc(C(=O)NCc5c(SC)cc(C)[nH]c5=O)c(C)c4O3)CC2)C1`: “log2 fold change” 0.463 (RNA-seq, refers to: GAREM1 mouse homolog; mouse, HT-1376 xenograft, whole blood; dose not given; reference: vehicle).
`CC(C)=CCc1cc(C(=O)/C=C/c2ccc(O)cc2)c(O)cc1O` has a Km of 3.78 ± 0.58 µM (phase I metabolism, substrate; mouse liver microsomes).
With `COC(=O)c1cc(NC2=NC(=O)C(=Cc3ccc(N(C)C)cc3)S2)ccc1OC(C)=O` the mRNA level was 0.0161 fold change (A549; refers to: CEP78; 2.93 µM, 24 h; reference: DMSO).
`O=C(C[Se]C(=O)c1cc2ccccc2[nH]1)Nc1cccc(C(F)(F)F)c1` — result for “mean growth percent”: -81.1% (NCI60 prostate subpanel (PC-3, DU-145); cell growth; 10 µM, 48 h, one-dose).
Under “log2 fold change”, `CN1CCCNC(=O)c2cccc(c2)C(=O)NCCCN(C)CCCNc2cccc3c2C(=O)c2cccc(c2C3=O)NCCC1` is recorded as -0.831 (SAS; RNA-Seq, refers to: SMC5 mRNA; 1 µM, 6 h; reference: untreated cells).
`CCN(CC)CC(=O)Nc1cccc(-n2cc(-c3ccc4ccc(-c5cn(-c6cccc(NC(=O)CN(CC)CC)c6)nn5)cc4c3)nn2)c1` has a fold regulation of -1.42 (RCC4; PCR angiogenesis array, refers to: FGFR3; 5 x IC50, 6 h, normoxia; reference: untreated).
`CNc1ncnc2c1ncn2C1OC(CO)C(O)C1O` (stereo not shown) has an AP-TGFα release of -0.25% and 0.5% and 0.27% (mock-transfected cells; TGFα shedding, agonist; 10 nM; reference: unstimulated vehicle control).
With `CCCC[C@H](NC(=O)CCCCCCCNC(=O)CN1CCN(CC(=O)O)CCN(CC(=O)O)CC1)C(=O)N[C@H]1CC(=O)NCCCC[C@@H](C(N)=O)NC(=O)[C@H](Cc2c[nH]c3ccccc23)NC(=O)[C@H](CCCNC(=N)N)NC(=O)[C@@H](Cc2ccccc2)NC(=O)[C@H](Cc2c[nH]cn2)NC1=O` [technetium-99m labelled] the tissue uptake was 0.02 ± 0.01 %ID/g (C57 mouse, liver; intravenous, 0.037 MBq, 24 h).
`O=CCNCCOn1c(=O)n(OCCNCCO)c(=O)n(OCCNCCOn2c(=O)n(OCCNCCO)c(=O)n(OCCNCCO)c2=O)c1=O` gave a viability of 41.9% (A549; cell growth or viability, MTT; 50 µg/mL, 72 h).
`C=CC(=O)Nc1cccc(Cn2ncc3cnc(Nc4cnn(CCOC)c4)nc32)c1`: “percent of control” 74% (HASPIN human; binding, KINOMEscan; 100 nM; lower = stronger binding).
`COc1cc(N2CCN(C(=O)C3CCCN3)CC2)ccc1Nc1ncc(Cl)c(Nc2ccccc2P(C)(C)=O)n1` (stereo not shown) — result for “late apoptotic cells”: 9.7% (Ba/F3 EML4-ALK; annexin V flow cytometry; concentration not given, 6 h).
The phototoxicity index of `Cc1cccc(-c2cccc(C)n2)n1.Cc1cccc(-c2cccc(C)n2)n1.F[P-](F)(F)(F)(F)F.F[P-](F)(F)(F)(F)F.[Ru+2].c1ccc(-c2nc3c4cccnc4c4ncccc4c3[nH]2)cc1` is reported as 4 (SK-MEL-28; normoxia, with: green light 523 nm, 100 J/cm2; reference: dark over light EC50).
`CCC(=CCc1c(O)cc2c(c1O)C(=O)CC(c1ccc(O)cc1)O2)CC` (stereo not shown) has an inhibition of 73.4% (HeLa; cell growth or viability, MTT; 25 µM, 48 h).
`Cc1ncsc1-c1ccc(C(C)NC(=O)C2CC(O)CN2C(=O)C(NC(=O)CCCCCCCCCCN2CCCC(Nc3ncc(Cl)c(Nc4ccccc4S(=O)(=O)C(C)C)n3)C2)C(C)(C)C)cc1` (stereo not shown) — result for “log2 fold change”: -1.67 (22Rv1; RNA-seq, refers to: SSTR5 mRNA; concentration not given; reference: DMSO).
For `Cc1cccc(-c2cccc(C)n2)n1.Cc1cccc(-c2cccc(C)n2)n1.F[P-](F)(F)(F)(F)F.F[P-](F)(F)(F)(F)F.[Ru+2].c1ccc2c(c1)Cc1cc(-c3nc4c5cccnc5c5ncccc5c4[nH]3)ccc1-2`, the EC50 was 22.4 ± 0.4 µM (SK-MEL-28; cell viability; dark, 1% O2).
For `CC(C)c1ccc(N(C)c2ccc3c(c2)OCC[C@H]3CNc2cnccc2C(=O)O)cc1`, the IC50 was 0.00695 µM (HSC-4; cell viability; 7 days).
`O=C(N1CCCC1)n1cc(-c2ccc(-c3ccccc3)cc2)nn1` has an SILAC ratio of 0.88 (mouse T cells; N-terminal labelling proteomics, refers to: FBXO7 N-terminal peptides; 0.001 µM, 6 h; reference: DMSO).
For `O=C(C[Se]C(=O)c1cc2ccccc2o1)Nc1cccc(C(F)(F)F)c1`, the TGI was 4.13 µM (NCI60 breast subpanel mean; cell growth).

Excerpt of the above:
`N#Cc1cccc(/C=C/C(=O)c2ccc(O)cc2)c1` has a fold change of 27.6 (U-87 MG; refers to: ZFAND2A; concentration not given; reference: untreated).
With `CCCC[C@H](NC(=O)CCCCCCCNC(=O)CN1CCN(CC(=O)O)CCN(CC(=O)O)CC1)C(=O)N[C@H]1CC(=O)NCCCC[C@@H](C(N)=O)NC(=O)[C@H](Cc2c[nH]c3ccccc23)NC(=O)[C@H](CCCNC(=N)N)NC(=O)[C@@H](Cc2ccccc2)NC(=O)[C@H](Cc2c[nH]cn2)NC1=O` [technetium-99m labelled] the tissue uptake was 0.02 ± 0.01 %ID/g (C57 mouse, liver; intravenous, 0.037 MBq, 24 h).
`CCC(=CCc1c(O)cc2c(c1O)C(=O)CC(c1ccc(O)cc1)O2)CC` (stereo not shown) has an inhibition of 73.4% (HeLa; cell growth or viability, MTT; 25 µM, 48 h).
For `Cc1cccc(-c2cccc(C)n2)n1.Cc1cccc(-c2cccc(C)n2)n1.F[P-](F)(F)(F)(F)F.F[P-](F)(F)(F)(F)F.[Ru+2].c1ccc2c(c1)Cc1cc(-c3nc4c5cccnc5c5ncccc5c4[nH]3)ccc1-2`, the EC50 was 22.4 ± 0.4 µM (SK-MEL-28; cell viability; dark, 1% O2).
With `C=CC(=O)N1[C@H](c2ccc3c(c2)OCO3)c2[nH]c3ccccc3c2C[C@@H]1C(=O)NC1CC1` the neuron degeneration was 79.7% and 77.2% (rat DRG neurons; 0.01372 µM, 48 h, with: vincristine 40 nM).
